Experimental data of several laboratories.
A part holds a random share of what one study measured. Positions count from the first letter of the parent shown.

Series 1
Target: TAR DNA-binding protein 43, full length, His tag (TARDBP, Homo sapiens, UniProt Q13148, residues 1-414)
Technique: RNA Bind-n-Seq
Molecule type: RNA
Medium: in vitro
Concentration: 20 nM
Notes: 6-mer, flanks averaged, single round
Together with: 150 mM LiCl
Relative to: input library
Reading: higher = stronger binding
Quantity: 6-mer enrichment (R)
CAGAUU: 0.814
CUUCAC: 0.875
UUGGGG: 1.35
AUGUCA: 0.899
CGGAGU: 1
UUAUCG: 0.93
GUUUCC: 1.02
AGCUCG: 0.83
CGAAAC: 0.77
CUUUAA: 0.96
UCAAAC: 0.811
CGUACC: 0.861

Series 2
Target: CCNB2, cyclin fold, Cln2 fusion (human)
Technique: yeast growth competition, sequencing
Medium: yeast
Notes: weak parent motif
Relative to: not given
Reading: higher = stronger binding
Quantity: normalised enrichment score
Starting sequence: RBL2 docking peptide (human); STTRRRLFVENDS
R4C: -0.0153
R5Y: 0.0498
T3D: 0.154
V9W: 0.936
N11F: 0.987
N11D: 0.768
E10M: 0.974
N11V: 0.534
T3I: 1.15
T2N: 0.585
R6T: 0.0807
V9R: 0.289

Series 3
Target: Centromere-binding protein 1, full length, N-terminal tag (CBF1, Saccharomyces cerevisiae, UniProt P17106, residues 1-351)
Chain of UniProt P17106 (whole entry, looked up): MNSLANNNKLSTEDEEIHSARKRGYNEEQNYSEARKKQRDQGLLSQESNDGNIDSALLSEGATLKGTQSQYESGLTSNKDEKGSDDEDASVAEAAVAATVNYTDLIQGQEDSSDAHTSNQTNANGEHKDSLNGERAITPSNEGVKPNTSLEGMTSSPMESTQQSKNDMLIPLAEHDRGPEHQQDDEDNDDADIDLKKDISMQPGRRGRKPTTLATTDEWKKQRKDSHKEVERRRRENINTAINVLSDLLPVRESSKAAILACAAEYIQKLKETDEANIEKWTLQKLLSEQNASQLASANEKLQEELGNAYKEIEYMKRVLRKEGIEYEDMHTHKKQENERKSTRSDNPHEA
Technique: protein-binding microarray
Molecule type: double-stranded DNA, one strand shown
Medium: in vitro
Concentration: 0.8 µM
Notes: whole 60-bp probe, no competitor
Reading: higher = stronger binding
Quantity: fluorescence intensity
All sequences stand within: … GTCTTGATTCGCTTGACGCTGCTG
CTACACAATCCACGGCGCACGCAAGGGACAGCATTC: 515 a.u.
GAAGACGTAGTGTGTGGTGTGGTATAGTACGCGTAG: 529 a.u.
GAATTTAAGACGAATGGTGTGAAATCGGAAATTTAG: 553 a.u.
GAAGTGGCCTCCGGTCACCTCGAGTTAGAACTTTAG: 479 a.u.
GAAATCAATATAAGCAACGTGAAACGATCGAAGTAG: 587 a.u.
GAAAACTTATACTGCCGCACGCCAAACATTGCATAG: 488 a.u.
GAAGAGAGTAACAAGCATGTGAACTTGTTGTTCTAG: 594 a.u.
CTACATGAATTTCGTTCCGTGATTTTAATAGTATTC: 680 a.u.
CTATTCAACATTGCGGGCGTGATTATAGGTCAGTTC: 610 a.u.
GAATTCACAATATTCCGCGTGAATCGTAGAATTTAG: 525 a.u.
CTAATTTAGGTAGACGTGGTGATCAATTGAAGTTTC: 547 a.u.
CTATTCCTCTCTGGCCAGGTGACTTTCTGAATTTTC: 1080 a.u.
CCTAACTACTATAGGAAGGTGACATAGCTTCGTACA: 532 a.u.
GAATATTCCTGATATCACGAGCTTGTCTTATAGTAG: 1010 a.u.
GAATCACATGAGAATCACGTGAATTTTCAGATATAG: 11200 a.u.
GAAAAATAGTGCTGGTTCGTGACGTGTAAATTCTAG: 843 a.u.
GAATTTGTTTTTAATCATGATGGACATGCAAGTTAG: 593 a.u.
GAAAAAGATACGAATCACGGCAAACTATATTCATAG: 574 a.u.
CCTAACTACTATAATGGCACGTGATAGCTTCGTACA: 13200 a.u.
GAAATCGCGCGTTCACACGTCACACCGCAGCATTAG: 676 a.u.
GAAGCATAAAGTATGCATCAGAAGGATTCTCACTAG: 502 a.u.

Further values, each from its own experiment
PhoQ, residues 284 288 289 292 302 303 ALVSVA  fold induction (PhoP, residues 12 14 15 18 19 HEGLL (Escherichia coli, UniProt P23836); Sort-seq, refers to: YFP reporter; E. coli; PhoQ-PhoP variant library, together with: 10 µM Mg2+; relative to: high Mg2+ state, higher = stronger signaling): 1.4

Some of these lines once more (series 1):
UCAAAC: 0.811
CUUCAC: 0.875
AGCUCG: 0.83
